Published values from different studies.
Each line is one published result; not all experiments were run side by side. Numbers after ± are the reported error.
Chain of UniProt P41586 (whole entry, unmodified, looked up): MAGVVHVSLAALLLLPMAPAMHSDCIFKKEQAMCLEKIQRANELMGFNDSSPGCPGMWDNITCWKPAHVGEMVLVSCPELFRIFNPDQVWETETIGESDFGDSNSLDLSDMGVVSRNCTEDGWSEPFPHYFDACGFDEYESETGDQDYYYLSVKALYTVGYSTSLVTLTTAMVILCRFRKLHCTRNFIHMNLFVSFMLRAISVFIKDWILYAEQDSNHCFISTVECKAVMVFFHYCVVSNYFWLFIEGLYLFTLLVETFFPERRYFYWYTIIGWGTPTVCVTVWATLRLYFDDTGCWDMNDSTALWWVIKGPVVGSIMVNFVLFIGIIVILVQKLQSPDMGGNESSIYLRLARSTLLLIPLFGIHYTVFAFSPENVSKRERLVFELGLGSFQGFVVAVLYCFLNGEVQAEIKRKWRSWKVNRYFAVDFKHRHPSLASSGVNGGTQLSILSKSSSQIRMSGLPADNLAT
Chain of UniProt P21554 (whole entry, unmodified, looked up): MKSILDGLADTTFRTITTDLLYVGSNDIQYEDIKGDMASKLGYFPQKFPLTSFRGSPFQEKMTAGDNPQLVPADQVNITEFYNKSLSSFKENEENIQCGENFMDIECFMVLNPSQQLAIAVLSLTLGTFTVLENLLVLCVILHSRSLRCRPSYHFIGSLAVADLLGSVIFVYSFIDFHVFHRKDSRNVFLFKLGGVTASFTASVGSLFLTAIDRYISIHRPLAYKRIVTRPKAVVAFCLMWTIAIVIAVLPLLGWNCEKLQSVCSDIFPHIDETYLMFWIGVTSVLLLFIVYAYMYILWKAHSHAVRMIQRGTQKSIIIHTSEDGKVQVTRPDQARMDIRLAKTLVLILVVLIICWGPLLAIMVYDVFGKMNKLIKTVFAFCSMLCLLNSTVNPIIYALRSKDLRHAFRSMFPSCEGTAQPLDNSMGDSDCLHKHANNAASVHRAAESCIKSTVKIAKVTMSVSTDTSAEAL
Chain of UniProt P41143 (whole entry, looked up): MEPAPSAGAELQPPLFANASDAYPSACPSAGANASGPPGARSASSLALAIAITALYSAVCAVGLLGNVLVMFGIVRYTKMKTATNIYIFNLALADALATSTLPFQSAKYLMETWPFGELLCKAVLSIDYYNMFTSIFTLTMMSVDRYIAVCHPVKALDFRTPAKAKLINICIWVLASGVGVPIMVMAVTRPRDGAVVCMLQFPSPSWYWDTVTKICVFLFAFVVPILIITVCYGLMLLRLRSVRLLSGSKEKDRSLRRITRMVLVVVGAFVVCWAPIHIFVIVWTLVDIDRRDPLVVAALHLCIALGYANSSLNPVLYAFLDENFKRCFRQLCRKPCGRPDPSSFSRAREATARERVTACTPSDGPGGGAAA
Chain of UniProt P54941 (whole entry, looked up): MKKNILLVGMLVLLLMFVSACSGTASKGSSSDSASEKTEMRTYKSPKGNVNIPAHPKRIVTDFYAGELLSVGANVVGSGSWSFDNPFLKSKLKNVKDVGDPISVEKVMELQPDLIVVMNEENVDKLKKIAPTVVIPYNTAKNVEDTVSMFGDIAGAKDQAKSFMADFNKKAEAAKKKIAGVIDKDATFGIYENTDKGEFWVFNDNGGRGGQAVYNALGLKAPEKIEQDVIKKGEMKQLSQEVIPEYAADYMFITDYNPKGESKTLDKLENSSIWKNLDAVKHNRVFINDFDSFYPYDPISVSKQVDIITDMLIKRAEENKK

Compound	target or system	test	test system	setting	endpoint	value
COc1ccc(NC(=O)N2CCCCN3[C@H](CN(C)C)[C@H](c4ccc(C#Cc5ccccc5)cc4)[C@@H]3C2)cc1	Toxoplasma gondii	tachyzoite growth, luciferase	HFF	72 h	EC50	113 nM
CSCC[C@H](NC(=O)[C@H](CCC(N)=O)NC(=O)[C@H](CCCCN)NC(=O)[C@H](CCCNC(=N)N)NC(=O)[C@H](Cc1ccc(O)cc1)NC(=O)[C@H](CCCNC(=N)N)NC(=O)[C@H](CO)NC(=O)[C@H](Cc1ccc(O)cc1)NC(=O)[C@H](CO)NC(=O)[C@H](CC(=O)O)NC(=O)[C@@H](NC(=O)[C@@H](N)Cc1ccccc1)[C@@H](C)O)C(=O)N[C@@H](C)C(=O)N[C@H](C(=O)N[C@@H](CCCCN)C(=O)N[C@@H](CCCCn1cc(C[C@H](NC(=O)CNC(=O)[C@H](CO)NC(=O)[C@H](CCCNC(=N)N)NC(=O)[C@H](CO)NC(=O)[C@H](CC(C)C)NC(=O)[C@H](CC(C)C)NC(=O)CNC(=O)[C@H](C)NC(=O)[C@H](CC(C)C)NC(=O)[C@H](CCCNC(=N)N)NC(=O)[C@H](Cc2c[nH]cn2)NC(=O)[C@@H](NC(=O)[C@@H](N)C(C)C)[C@@H](C)O)C(=O)N[C@H](C(=O)N[C@H](C(=O)N[C@@H](CCCCN)C(=O)N[C@@H](CC(N)=O)C(=O)N[C@@H](CC(N)=O)C(=O)N[C@@H](Cc2ccccc2)C(=O)N[C@H](C(=O)N2CCC[C@H]2C(=O)N[C@H](C(=O)N[C@@H](CC(N)=O)C(=O)N[C@H](C(=O)NCC(=O)N[C@@H](CO)C(=O)N[C@@H](CCCCN)C(=O)N[C@@H](C)C(=O)N[C@@H](Cc2ccccc2)C(N)=O)C(C)C)[C@@H](C)O)C(C)C)C(C)C)C(C)C)nn1)C(=O)N[C@@H](Cc1ccc(O)cc1)C(=O)N[C@@H](CC(C)C)C(=O)N[C@@H](C)C(=O)N[C@@H](C)C(=O)N[C@H](C(=O)N[C@@H](CC(C)C)C(=O)NCC(=O)N[C@@H](CCCCN)C(=O)N[C@@H](CCCNC(=N)N)C(=O)N[C@@H](Cc1ccc(O)cc1)C(=O)N[C@@H](CCCCN)C(=O)N[C@@H](CCC(N)=O)C(=O)N[C@@H](CCCNC(=N)N)C(=O)N[C@H](C(=O)N[C@@H](CCCCN)C(=O)N[C@@H](CC(N)=O)C(=O)N[C@@H](CCCCN)C(N)=O)C(C)C)C(C)C)C(C)C	Pituitary adenylate cyclase-activating polypeptide type I receptor (ADCYAP1R1, Homo sapiens, UniProt P41586, del89-109)	cAMP accumulation, antagonist	COS-7 transfected	from pA2, single concentration, added: PACAP-38	Kb	3980 nM
O=C1CCC(=O)N([O-])CCCCCNC(=O)CCC(=O)N([O-])CCCCCNC(=O)CCC(=O)N([O-])CCCCCN1.[Fe+3]	Iron(3+)-hydroxamate-binding protein YxeB (yxeB, Bacillus subtilis, UniProt P54941)	binding, Trp fluorescence quenching		pH 7.4, added: yxeB 100 nM	Kd	28 ± 9 nM
CC[C@H](C)[C@H](NC(=O)[C@@H](NC=O)C(C)(C)C)C(=O)N[C@H](C(=O)N[C@H](C(=O)N[C@H](C(=O)NCC(=O)N1CCC[C@H]1C(=O)N[C@@H](Cc1c[nH]cn1)C(=O)N[C@@H](CCC(=O)O)C(=O)N[C@@H](CCC(=O)O)C(=O)N[C@@H](Cc1ccc(O)cc1)C(=O)N[C@@H](CCCCNC(=S)Nc1ccc2c(c1)C(=O)OC21c2ccc(O)cc2Oc2cc(O)ccc21)C(N)=O)[C@@H](C)O)[C@@H](C)CC)C(C)(C)C	Protein phosphatase 3 catalytic subunit alpha, with calcineurin B (PPP3CA, Homo sapiens, UniProt Q08209)	binding, fluorescence polarisation		GST-calcineurin, added: FITC-labelled peptide	Kd	> 5800 nM
Cc1ccc2c(C(C[N+](=O)[O-])c3cccs3)c(-c3ccccc3)[nH]c2c1 (centres unmarked)	Cannabinoid receptor 1 (CNR1, Homo sapiens, UniProt P21554, I245L)	β-arrestin recruitment, agonist, luciferase			EC50	320 nM
CSCC[C@H](NC(=O)[C@H](CCC(N)=O)NC(=O)[C@H](CCCCN)NC(=O)[C@H](CCCNC(=N)N)NC(=O)[C@H](Cc1ccc(O)cc1)NC(=O)[C@H](CCCNC(=N)N)NC(=O)[C@H](CO)NC(=O)[C@H](Cc1ccc(O)cc1)NC(=O)[C@H](CO)NC(=O)[C@H](CC(=O)O)NC(=O)[C@@H](NC(=O)[C@@H](N)Cc1ccccc1)[C@@H](C)O)C(=O)N[C@@H](C)C(=O)N[C@H](C(=O)N[C@@H](CCCCN)C(=O)N[C@@H](CCCCN)C(=O)N[C@@H](Cc1ccc(O)cc1)C(=O)N[C@@H](CC(C)C)C(=O)N[C@@H](C)C(=O)N[C@@H](C)C(=O)N[C@H](C(=O)N[C@@H](CC(C)C)C(=O)NCC(=O)N[C@@H](CCCCN)C(=O)N[C@@H](CCCNC(=N)N)C(=O)N[C@@H](Cc1ccc(O)cc1)C(=O)N[C@@H](CCCCN)C(=O)N[C@@H](CCC(N)=O)C(=O)N[C@@H](CCCCn1cc(C[C@H](NC(=O)CNC(=O)[C@H](CO)NC(=O)[C@H](CCCNC(=N)N)NC(=O)[C@H](CO)NC(=O)[C@H](CC(C)C)NC(=O)[C@H](CC(C)C)NC(=O)CNC(=O)[C@H](C)NC(=O)[C@H](CC(C)C)NC(=O)[C@H](CCCNC(=N)N)NC(=O)[C@H](Cc2c[nH]cn2)NC(=O)[C@@H](NC(=O)[C@@H](N)C(C)C)[C@@H](C)O)C(=O)N[C@H](C(=O)N[C@H](C(=O)N[C@@H](CCCCN)C(=O)N[C@@H](CC(N)=O)C(=O)N[C@@H](CC(N)=O)C(=O)N[C@@H](Cc2ccccc2)C(=O)N[C@H](C(=O)N2CCC[C@H]2C(=O)N[C@H](C(=O)N[C@@H](CC(N)=O)C(=O)N[C@H](C(=O)NCC(=O)N[C@@H](CO)C(=O)N[C@@H](CCCCN)C(=O)N[C@@H](C)C(=O)N[C@@H](Cc2ccccc2)C(N)=O)C(C)C)[C@@H](C)O)C(C)C)C(C)C)C(C)C)nn1)C(=O)N[C@H](C(=O)N[C@@H](CCCCN)C(=O)N[C@@H](CC(N)=O)C(=O)N[C@@H](CCCCN)C(N)=O)C(C)C)C(C)C)C(C)C	Pituitary adenylate cyclase-activating polypeptide type I receptor (ADCYAP1R1, Homo sapiens, UniProt P41586)	cAMP accumulation, antagonist	COS-7 transfected	from pA2, single concentration, added: PACAP-38	Kb	6310 nM
CCN(CC)C(=O)c1ccc(C(c2cccc(O)c2)N2CC(C)N(Cc3ccccc3)CC2C)cc1 (centres unmarked)	Delta-type opioid receptor (OPRD1, Homo sapiens, UniProt P41143)	β-arrestin recruitment, agonist			EC50	7.9 nM
COc1ccccc1C(C[N+](=O)[O-])c1c(-c2ccccc2)[nH]c2ccccc12 (centres unmarked)	Cannabinoid receptor 1 (CNR1, Homo sapiens, UniProt P21554, L387A)	G protein activation, agonist, BRET			EC50	280 nM

Excerpt of the above:
Compound	target or system	test	test system	setting	endpoint	value
COc1ccccc1C(C[N+](=O)[O-])c1c(-c2ccccc2)[nH]c2ccccc12 (centres unmarked)	Cannabinoid receptor 1 (CNR1, Homo sapiens, UniProt P21554, L387A)	G protein activation, agonist, BRET			EC50	280 nM
